Assay results pooled from the literature.
Numbered parts are unrelated; each lists some results of a single study. Positions count from the first letter of the parent shown.

Block 1
Target: RNA binding protein fox-1 homolog 2, RRM domain, GST-SBP tag (RBFOX2, Homo sapiens, UniProt O43251-10, residues 100-194)
Method: RNA Bind-n-Seq
Molecule type: RNA
Sample: in vitro
Concentration: 365 nM
Setting: natural RNA segment, single round, ends assumed
Baseline: no-protein control
Direction: higher = stronger binding
Quantity: RBNS enrichment (R)
Constant ends, left off below: GGGAGUUCUACAGUCCGACGAUC … UGGAAUUCUCGGGUGCCAA
Construct (chain): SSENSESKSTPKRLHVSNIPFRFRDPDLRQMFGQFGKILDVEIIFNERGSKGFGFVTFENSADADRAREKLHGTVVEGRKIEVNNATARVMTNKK
AUAGGUACCCAACUGGUUGAUUAUUAAUCAAGAAUACAGAACUUUAUUUAAUAAUUAGCACACCCUGAUCUGGCUUCUUUGCUUGCUUUUCUUUGGAUCCCUGUCCAAUA: 0.901
GUCCCCGCCCCUCUUCAGUCCUGCCCUCCCCUCCUCAGUCCUGCCCACCCCGUGCAGCCCAUGCUGAGGCUGCAGUGGUGUCGUGGGUGUUACGUGCAGGAACGUGGAGA: 0.586
UGCUUGGACCUAGUUGGUGUUUGUGUUCUGUAAAGUGAGCACGUUGUCCUCCCAAGAGAAGCACUUCAGUGGUGCAGUGGUAAGAGCCCACAGCAUUGAGGCCAGCCUGA: 0.548
GUCAGACUAAUUUCCUUCUUUCCUCGCACUUCUCCCCACUCGUCAUCUUUUAACUAGUGUUUCACAAGGAUCCUCUGAAACCCUCUCUGUGCCCCAAGUACAGAUGCCAU: 0.608
UUGAAUGGGCCCACAGUGUUUAUGUACUCUUAACAACUCACAGAAUAAUACAUGUUCACUUUAUUUUGUAAAAUUGGGUUGAGAGGAAACUAAUGGAGUUUCAUUGUAAC: 1.28
ACCCUCAAGGAGGAGGUAACUAAGAGGCUCUUCCAGGGGUAGCUGGUGGGUGUGCUUUUCAUAGGCUUCCCUUUGCCUUAAACCUGAAGAUGUCUCCUCAAGCCUGUGGG: 0.838
ACUGAGUUACAUCUCCAUCCUGUAACUGAUCUUUGAGCUUGGUCAUCAGGCCCUUAAUUAUGGCAGAGAGGUAAUCAGCUGGCUACAGCCAGGAUGCUCAGCAUUGGAAG: 0.265
CUUUAUCUUACUCUUCAGCUAAUGAAGUAGCAACAGUGUGUUACUAAUGAUUGCAAUCAUACAGUGCUUAAUAUGUGCCAGACACAGUGCCAAGGGCUUGCAUGCAUUAU: 4.48
UAUUUUAAACUUGUGUAUCACAACUUGGUUGAUAUGCCUAAAAUGAUCUACUGGCUUUUGCUUAUGAUUAAAAAACCUCAAAUCUAUCUUCUACAUUUUAAAAGGAAGAA: 0.329

Block 2
Target: CCNA2, cyclin fold, Cln2 fusion (human)
Method: yeast growth competition, sequencing
Sample: yeast
Setting: strong parent motif
Baseline: not given
Direction: higher = stronger binding
Quantity: normalised enrichment score
Starting sequence: GMNC docking peptide (human); KNAKRNLSSEFAN; partner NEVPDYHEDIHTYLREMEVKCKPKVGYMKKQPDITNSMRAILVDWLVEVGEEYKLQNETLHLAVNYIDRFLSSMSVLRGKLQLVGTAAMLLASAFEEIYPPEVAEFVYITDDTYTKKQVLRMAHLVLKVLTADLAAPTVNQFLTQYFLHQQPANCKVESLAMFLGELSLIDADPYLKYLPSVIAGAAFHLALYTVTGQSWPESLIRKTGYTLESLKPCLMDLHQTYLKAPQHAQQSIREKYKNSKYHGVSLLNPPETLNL
KNAKRNLESEFAN [S8E]: 5.38
KNAKRNLSSENAN [F11N]: -0.142
KNQKRNLSSEFAN [A3Q]: 0.832
KNAKRNMSSEFAN [L7M]: 0.328
KNAKRNLSSPFAN [E10P]: 0.221
KNAKRNISSEFAN [L7I]: 2.33
KNAKRNLSSECAN [F11C]: 0.776

Block 3
Target: PABPC1L2, full length, GST fusion (mouse, UniProt A0ABA7IW68)
Method: RNAcompete
Molecule type: RNA
Sample: in vitro
Concentration: 20 nM
Setting: 7-mer, probes averaged, single round
Baseline: mean of 7-mers
Direction: higher = stronger binding
Quantity: 7-mer Z-score
Residues (chain): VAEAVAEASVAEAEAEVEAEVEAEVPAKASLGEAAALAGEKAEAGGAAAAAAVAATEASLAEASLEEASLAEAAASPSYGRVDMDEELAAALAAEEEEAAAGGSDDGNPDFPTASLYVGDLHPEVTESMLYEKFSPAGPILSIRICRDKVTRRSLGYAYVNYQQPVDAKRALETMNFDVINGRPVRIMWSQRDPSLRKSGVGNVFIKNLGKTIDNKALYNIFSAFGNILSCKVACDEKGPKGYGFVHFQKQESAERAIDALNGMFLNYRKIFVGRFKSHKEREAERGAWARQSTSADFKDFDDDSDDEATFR
CCUGUAA: -0.00652
UUUUGGC: -0.215
AUCUGGU: -0.159
GAACGGG: 0.151
CCUCGGA: -0.393
AAAGGCC: 0.485
GCUGGGU: 0.0334
AGCGGAU: -0.0591

Mixed results
PhoQ, residues 284 288 289 292 302 303 NLSRDF — fold induction (PhoP, residues 12 14 15 18 19 AWHSL (Escherichia coli, UniProt P23836); Sort-seq, item: YFP reporter; E. coli; PhoQ-PhoP variant library, added: 10 µM Mg2+; baseline: high Mg2+ state, higher = stronger signaling): 4.99

Some of these lines once more (block 1):
UGCUUGGACCUAGUUGGUGUUUGUGUUCUGUAAAGUGAGCACGUUGUCCUCCCAAGAGAAGCACUUCAGUGGUGCAGUGGUAAGAGCCCACAGCAUUGAGGCCAGCCUGA: 0.548
ACUGAGUUACAUCUCCAUCCUGUAACUGAUCUUUGAGCUUGGUCAUCAGGCCCUUAAUUAUGGCAGAGAGGUAAUCAGCUGGCUACAGCCAGGAUGCUCAGCAUUGGAAG: 0.265
